Measurements of several laboratories.
A part holds a random share of what one study measured. Changes are numbered by the printed parent chain.

Set 1 — method: universal PBM; molecule type: double-stranded DNA, one strand shown; medium: in vitro; tested at: 600 nM; reading: higher = stronger binding
Target: Sal-like protein 4, full length isoform A (SALL4, Homo sapiens, UniProt Q9UJQ4, residues 1-1053)
Sequence of UniProt Q9UJQ4 (whole entry, looked up): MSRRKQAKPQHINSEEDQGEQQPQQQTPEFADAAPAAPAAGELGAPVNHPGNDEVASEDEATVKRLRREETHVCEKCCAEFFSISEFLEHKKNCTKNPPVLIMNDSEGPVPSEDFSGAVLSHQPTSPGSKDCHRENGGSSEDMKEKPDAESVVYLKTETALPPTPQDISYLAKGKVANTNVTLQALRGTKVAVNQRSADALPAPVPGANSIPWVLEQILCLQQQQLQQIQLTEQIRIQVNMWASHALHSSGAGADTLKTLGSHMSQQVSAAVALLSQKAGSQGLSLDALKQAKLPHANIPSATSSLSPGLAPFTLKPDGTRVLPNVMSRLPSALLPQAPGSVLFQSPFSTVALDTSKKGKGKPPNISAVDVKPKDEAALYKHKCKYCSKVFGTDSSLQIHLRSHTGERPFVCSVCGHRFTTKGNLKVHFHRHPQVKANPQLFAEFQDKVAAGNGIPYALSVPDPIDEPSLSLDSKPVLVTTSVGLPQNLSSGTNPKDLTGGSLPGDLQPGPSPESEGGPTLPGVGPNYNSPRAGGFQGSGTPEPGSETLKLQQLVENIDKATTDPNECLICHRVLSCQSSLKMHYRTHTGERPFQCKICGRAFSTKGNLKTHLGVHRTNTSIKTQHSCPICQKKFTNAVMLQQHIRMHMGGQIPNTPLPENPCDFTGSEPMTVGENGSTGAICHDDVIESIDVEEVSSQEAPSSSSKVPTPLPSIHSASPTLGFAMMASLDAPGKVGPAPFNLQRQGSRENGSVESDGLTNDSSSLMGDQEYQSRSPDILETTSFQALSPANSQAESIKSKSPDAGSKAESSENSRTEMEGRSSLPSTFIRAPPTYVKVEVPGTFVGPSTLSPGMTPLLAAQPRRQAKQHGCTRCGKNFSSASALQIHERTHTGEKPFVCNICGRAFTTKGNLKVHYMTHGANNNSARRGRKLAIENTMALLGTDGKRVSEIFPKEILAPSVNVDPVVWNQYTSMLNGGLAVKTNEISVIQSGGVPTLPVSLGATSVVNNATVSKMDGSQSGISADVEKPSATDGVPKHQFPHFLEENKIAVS
Setting: 8-mer, flanks averaged, mean of replicates
Strand | E-score
ACTCTGCA | -0.0262
ACAGCCTG | -0.0729
CGAGCGGC | -0.36
GAGTGACA | -0.0714
AGGAGGCC | -0.287
TATCAGGA | 0.21
TAGAATAA | 0.345
GGTGATAC | -0.16

Set 2 — Change: I105L; method: DHFR PCA, deep sequencing; medium: yeast; reference: wild-type fitted maximum; reading: higher = stronger binding
Target: ABI1, truncated, D143A, DHFR fusion (Arabidopsis thaliana)
Setting: methotrexate growth selection, single substitutions
Starting sequence: PYL1, truncated, DHFR fusion (Arabidopsis thaliana); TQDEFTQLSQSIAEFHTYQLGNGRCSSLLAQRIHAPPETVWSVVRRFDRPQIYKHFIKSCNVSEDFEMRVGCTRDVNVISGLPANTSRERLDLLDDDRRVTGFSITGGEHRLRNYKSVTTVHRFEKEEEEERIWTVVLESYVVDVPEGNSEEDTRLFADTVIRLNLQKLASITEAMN
setting | relative binding score
with: (+)-ABA 17 µM | -2.55%
with: (+)-ABA 710 µM | 67.9%
with: (+)-ABA 0 µM | -4.84%
with: (+)-ABA 58 µM | 19.1%
with: (+)-ABA 0.39 µM | -14%
with: (+)-ABA 1.4 µM | -3.22%

Set 3 — method: Spec-seq; molecule type: double-stranded DNA, one strand shown; medium: in vitro; tested at: not given; setting: whole probe, mean of replicates; reference: not given; reading: lower = stronger binding; all sequences stand within: GAGTCGTCTCGTCAGCAC … CCGTAGAGCACTCAGGTC
Target: Transcription factor SOX-2, HMG box (Sox2, Mus musculus, UniProt P48432, residues 41-119)
Sequence of UniProt P48432 (41-119, looked up): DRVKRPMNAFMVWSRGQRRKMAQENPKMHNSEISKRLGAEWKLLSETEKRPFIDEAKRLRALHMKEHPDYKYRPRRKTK
Strand | relative binding energy
TGCAGTT | 0.439 ln ratio
TTCTGTT | -0.592 ln ratio
CATTGTG | -1.97 ln ratio
CATGCAT | -0.00435 ln ratio
GGTTGTT | 0.119 ln ratio
CATTTCG | 0.302 ln ratio
CTGAGTT | 1.25 ln ratio
TCCGGTT | 1.22 ln ratio

Single results of other studies
Compound | target | assay | test system | setting | quantity | value
COc1cc(C(=O)N2CCC(N3CCN(C)CC3)CC2)ccc1Nc1ncc2c(n1)N(C)c1ccccc1C(=O)N2C | mouse CaMK1δ | probe labelling, KiNativ ADP probe | mouse brain lysate | 0.1 µM, LYS1 site LFAVkCIPK | inhibition | -10%

A few entries again (set 2):
setting | relative binding score
with: (+)-ABA 17 µM | -2.55%
with: (+)-ABA 710 µM | 67.9%
